{"data": "Measurements gathered from unrelated publications", "note": "Compare with care: the assays were run in different laboratories. Values joined by “and” are separate records of one study, mostly repeats; a detail may differ. ± marks the error that the study gave."}
{"Structure (SMILES)": "C=CC(=O)N1[C@@H](c2ccc3c(c2)OCO3)c2[nH]c3ccccc3c2C[C@H]1C(=O)N1CCN(C)CC1", "tested on": "human cyclin E1 N112C-3xFLAG:CDK2", "assay": "co-IP with TMT proteomics, refers to: DDX3X", "setting": "concentration not given, O00571", "how to read": "relative to: wild type DMSO", "quantity": "relative co-enrichment", "result": "97%"}
{"Structure (SMILES)": "COc1cc(O)ccc1CCC(c1ccc(O)cc1)c1cc2c(c(C)c1O)OC(c1ccc(O)cc1)CC2 (mixture of isomers)", "assay": "refers to: eicosapentaenoic acid", "test system": "human whole blood", "setting": "30 µM, added: Escherichia coli", "quantity": "amount", "result": "50700 ± 5160 pg/mL blood"}
{"Structure (SMILES)": "COC1OC(C)C(OC2OC(C)C(OS(=O)(=O)O)C(OS(=O)(=O)O)C2OS(=O)(=O)O)C(OS(=O)(=O)O)C1OS(=O)(=O)O (stereo not drawn)", "test system": "human plasma", "setting": "128 µg/mL", "quantity": "activated partial thromboplastin time", "result": "42.5 ± 0.9 s"}
{"Structure (SMILES)": "Nc1ncc(-c2cc(-c3cnn(CC(F)(F)F)c3)ncc2F)nc1C(=O)NC1CNCC(F)C1 (stereo not drawn)", "tested on": "EPHB2", "assay": "KINOMEscan", "setting": "1 µM", "how to read": "relative to: DMSO control", "quantity": "remaining binding", "result": "95%"}
{"Structure (SMILES)": "C=CC(=O)Nc1cccc(Cn2ncc3cnc(Nc4cnn(CCOC)c4)nc32)c1", "tested on": "EGFR human", "assay": "binding, KINOMEscan", "setting": "100 nM", "how to read": "lower = stronger binding", "quantity": "percent of control", "result": "100%"}
{"Structure (SMILES)": "C[n+]1ccc(/C=N/NC(=O)c2cccc(C(=O)N/N=C/c3cc[n+](C)cc3)n2)cc1", "tested on": "22CTA telomeric G4-DNA antiparallel", "assay": "FRET melting", "setting": "1 µM, K10 buffer, DNA 0.2 µM, added: ds26 10 µM", "quantity": "ΔTm", "result": "4.5 ± 1 °C"}
{"Structure (SMILES)": "COC1CN([C@H]2CC[C@H]([C@@]3(C)Oc4c(Cl)cc(C(=O)NCc5c(SC)cc(C)[nH]c5=O)c(C)c4O3)CC2)C1", "assay": "RNA-seq, refers to: RORB", "test system": "human, whole blood", "setting": "dose not given, 24 h", "how to read": "relative to: pretreatment baseline", "quantity": "log2 fold change", "result": 4.67}
{"Structure (SMILES)": "C[n+]1cc(/C=N/NC(=O)c2cccc(C(=O)N/N=C/c3cc4ccccc4[n+](C)c3)n2)cc2ccccc21", "tested on": "22CTA telomeric G4-DNA antiparallel", "assay": "FRET melting", "setting": "1 µM, K10 buffer, DNA 0.2 µM, added: ds26 10 µM", "quantity": "ΔTm", "result": "9.7 ± 0.3 °C"}
{"Structure (SMILES)": "Nc1nc2cc(CC[C@H]3C[C@@H](n4ccc5c(N)ncnc54)[C@H](O)[C@@H]3O)ccc2cc1Br", "test system": "A-427 xenograft, mouse", "setting": "10.0 mg/kg/day, day 34", "quantity": "tumour volume", "result": "37 ± 6 mm3"}
{"Structure (SMILES)": "C[n+]1cccc2cc(/C=N/NC(=O)C(=O)N/N=C/c3ccc4c(ccc[n+]4C)c3)ccc21", "tested on": "22CTA telomeric G4-DNA antiparallel", "assay": "FRET melting", "setting": "1 µM, K10 buffer, DNA 0.2 µM, added: ds26 10 µM", "quantity": "ΔTm", "result": "2 ± 0.6 °C"}
{"Structure (SMILES)": "COC1OC(C)C(O)C(OC2OC(C)C(O)C(OC3OC(C)C(O)C(OC4OC(C)C(O)C(OC5OC(C)C(O)C(OC6OC(C)C(O)C(OC7OC(C)C(O)C(OC8OC(C)C(O)C(OC9OC(C)C(O)C(OC%10OC(C)C(O)C(OS(=O)(=O)O)C%10OS(=O)(=O)O)C9OS(=O)(=O)O)C8OS(=O)(=O)O)C7OS(=O)(=O)O)C6OS(=O)(=O)O)C5OS(=O)(=O)O)C4OS(=O)(=O)O)C3OS(=O)(=O)O)C2OS(=O)(=O)O)C1OS(=O)(=O)O (stereo not drawn)", "test system": "human plasma", "setting": "128 µg/mL", "quantity": "activated partial thromboplastin time", "result": "43 ± 0.9 s"}
{"Structure (SMILES)": "C=C(NC(=O)c1csc(-c2nc3c(cc2O)-c2nc(cs2)C(=O)NC(C(C)O)C(=O)NC(=C(C)OC)c2nc(cs2)C(=O)NC2c4nc(cs4)C(=O)NC(COC(=O)c4c5c6c(cccc6n4O)COC(=O)C(OC4CC(C)(O)C(N(C)C)C(C)O4)C2OC5)c2nc-3cs2)n1)C(N)=O (stereo not drawn)", "tested on": "Staphylococcus epidermidis", "assay": "microbial growth", "setting": "clinical isolate", "quantity": "MIC90", "result": "0.0312 µg/mL"}
{"Structure (SMILES)": "C[n+]1cc(/C=N/NC(=O)c2cccc(C(=O)N/N=C/c3cc4ccccc4[n+](C)c3)c2)cc2ccccc21", "tested on": "22CTA telomeric G4-DNA antiparallel", "assay": "FRET melting", "setting": "1 µM, K10 buffer, DNA 0.2 µM, added: ds26 10 µM", "quantity": "ΔTm", "result": "7.3 ± 0.4 °C"}
{"Structure (SMILES)": "COC1OC(C)C(OC2OC(C)C(O)C(OC3OC(C)C(OC4OC(C)C(O)C(OC5OC(C)C(OC6OC(C)C(O)C(OS(=O)(=O)O)C6OS(=O)(=O)O)C(OS(=O)(=O)O)C5OS(=O)(=O)O)C4OS(=O)(=O)O)C(OS(=O)(=O)O)C3OS(=O)(=O)O)C2OS(=O)(=O)O)C(OS(=O)(=O)O)C1OS(=O)(=O)O (stereo not drawn)", "test system": "human plasma", "setting": "32 µg/mL", "quantity": "activated partial thromboplastin time", "result": "53.2 s and 55.9 s and 54.5 s"}
{"Structure (SMILES)": "c1ccc(-c2n[nH]cc2-c2ccnc3ccccc23)nc1", "tested on": "RTK1 (Candida albicans)", "assay": "kinase binding, MIB/MS competition", "test system": "Candida albicans lysate", "setting": "1 µM", "how to read": "relative to: DMSO", "quantity": "log2 fold change", "result": 0.13}
{"Structure (SMILES)": "COCC1CN(C2CCN(c3cc(OC)c(Nc4ncc(Br)c(Nc5ccc6c(c5P(C)(C)=O)OCCO6)n4)cc3C)CC2)C1", "assay": "RECIST 1.1", "test system": "advanced EGFR-mutant NSCLC patients", "setting": "30 mg once daily", "quantity": "not evaluable patients", "result": "0%"}
{"Structure (SMILES)": "COC1OC(C)C(O)C(OC2OC(C)C(O)C(OC3OC(C)C(O)C(OC4OC(C)C(O)C(OC5OC(C)C(O)C(OC6OC(C)C(O)C(OC7OC(C)C(O)C(OC8OC(C)C(O)C(OC9OC(C)C(O)C(OC%10OC(C)C(O)C(OC%11OC(C)C(O)C(OS(=O)(=O)O)C%11OS(=O)(=O)O)C%10OS(=O)(=O)O)C9OS(=O)(=O)O)C8OS(=O)(=O)O)C7OS(=O)(=O)O)C6OS(=O)(=O)O)C5OS(=O)(=O)O)C4OS(=O)(=O)O)C3OS(=O)(=O)O)C2OS(=O)(=O)O)C1OS(=O)(=O)O (stereo not drawn)", "test system": "human plasma", "setting": "128 µg/mL", "quantity": "activated partial thromboplastin time", "result": "41.9 ± 0.6 s"}
{"Structure (SMILES)": "O=C(N/N=C/c1cc[n+](Cc2ccccc2)c2ccccc12)N/N=C/c1cc[n+](Cc2ccccc2)c2ccccc12", "tested on": "22CTA telomeric G4-DNA antiparallel", "assay": "FRET melting", "setting": "1 µM, K10 buffer, DNA 0.2 µM, added: ds26 10 µM", "quantity": "ΔTm", "result": "9.1 ± 0.6 °C"}
{"Structure (SMILES)": "CO[C@@H]1[C@@H](OC(N)=O)[C@@H](O)[C@H](Oc2ccc3c(O)c(NC(=O)c4ccc(O)c(CC=C(C)C)c4)c(=O)oc3c2C)OC1(C)C", "tested on": "DLD-1 BRCA2-/-", "setting": "300 µM, replicate 2", "quantity": "colony count", "result": 0.1}
{"Structure (SMILES)": "Cc1ncsc1-c1ccc(C(C)NC(=O)C2CC(O)CN2C(=O)C(NC(=O)CCCCCCCCCCN2CCCC(Nc3ncc(Cl)c(Nc4ccccc4S(=O)(=O)C(C)C)n3)C2)C(C)(C)C)cc1 (stereo not drawn)", "tested on": "22Rv1", "assay": "RNA-seq, refers to: PTPRE mRNA", "setting": "concentration not given", "how to read": "relative to: DMSO", "quantity": "log2 fold change", "result": -1.52}
{"Structure (SMILES)": "O=C(N/N=C/c1cc[n+](CC2CC2)c2ccccc12)N/N=C/c1cc[n+](CC2CC2)c2ccccc12", "tested on": "22CTA telomeric G4-DNA antiparallel", "assay": "FRET melting", "setting": "1 µM, K10 buffer, DNA 0.2 µM, added: ds26 10 µM", "quantity": "ΔTm", "result": "5.6 ± 1.9 °C"}
{"Structure (SMILES)": "COC1OC(C)C(O)C(OC2OC(C)C(O)C(OC3OC(C)C(O)C(OC4OC(C)C(O)C(OS(=O)(=O)O)C4OS(=O)(=O)O)C3OS(=O)(=O)O)C2OS(=O)(=O)O)C1OS(=O)(=O)O (stereo not drawn)", "test system": "human plasma", "setting": "128 µg/mL", "quantity": "activated partial thromboplastin time", "result": "35.1 ± 0.8 s"}
{"Structure (SMILES)": "O=C(N/N=C/c1cc[n+](CC2CC2)c2ccccc12)C(=O)N/N=C/c1cc[n+](CC2CC2)c2ccccc12", "tested on": "22CTA telomeric G4-DNA antiparallel", "assay": "FRET melting", "setting": "1 µM, K10 buffer, DNA 0.2 µM, added: ds26 10 µM", "quantity": "ΔTm", "result": "4.7 ± 1.2 °C"}
{"Structure (SMILES)": "O=C(CCC(F)(F)F)Nc1ccc([C@H]2[C@@H](F)[C@@H](F)C[C@@H](F)[C@H]2F)cc1", "assay": "hepatocyte stability", "test system": "cryopreserved mouse hepatocytes", "setting": "1 µM", "quantity": "hepatic clearance", "result": "80 mL/min/kg"}
{"Structure (SMILES)": "C[n+]1ccc(/C=N/NC(=O)C(=O)N/N=C/c2cc[n+](C)c3ccccc23)c2ccccc21", "tested on": "22CTA telomeric G4-DNA antiparallel", "assay": "FRET melting", "setting": "1 µM, K10 buffer, DNA 0.2 µM, added: ds26 10 µM", "quantity": "ΔTm", "result": "2 ± 0.6 °C"}
{"Structure (SMILES)": "c1ccc(CN2CCOCCOCCN(CCCCCCCCN3CCOCCOCCN(CCCCCCCCN4CCOCCOCCN(Cc5ccccc5)CCOCCOCC4)CCOCCOCC3)CCOCCOCC2)cc1", "tested on": "Klebsiella pneumoniae", "assay": "checkerboard", "test system": "ATCC BAA-2146", "setting": "half MIC, added: tetracycline", "quantity": "FIC index", "result": 0.53}
{"Structure (SMILES)": "O=C(NC1CCOCC1)c1ccc([C@H]2[C@@H](F)[C@@H](F)C[C@@H](F)[C@H]2F)cc1", "assay": "liver microsome stability", "test system": "human liver microsomes", "setting": "1 µM, without NADPH", "quantity": "hepatic clearance", "result": "3.9 mL/min/kg"}
{"note": "For quick reference, copied from above:"}
{"Structure (SMILES)": "Cc1ncsc1-c1ccc(C(C)NC(=O)C2CC(O)CN2C(=O)C(NC(=O)CCCCCCCCCCN2CCCC(Nc3ncc(Cl)c(Nc4ccccc4S(=O)(=O)C(C)C)n3)C2)C(C)(C)C)cc1 (stereo not drawn)", "tested on": "22Rv1", "assay": "RNA-seq, refers to: PTPRE mRNA", "setting": "concentration not given", "how to read": "relative to: DMSO", "quantity": "log2 fold change", "result": -1.52}
